{"data": "Results collected from several papers", "organism": "Bacillus subtilis", "note": "Each line is one published result; not all experiments were run side by side."}
{"Structure (SMILES)": "COC1(C)CC2C=CC3C(C)C=CC=CC(C)OC(=O)C(C)C(=O)C(Cl)(Cl)C(=O)C3C2C(C)C1O (stereo not shown)", "test": "microbial growth, broth dilution", "MIC": "> 3.2 µg/mL"}
{"Structure (SMILES)": "O=[N+]([O-])c1ccc(CSc2nnc(C34CC5CC(CC(C5)C3)C4)n2-c2ccccc2)cc1", "test": "two-fold dilution", "test system": "IFO 3007", "setting": "24 h, 36 °C", "MIC": "8 µg/mL"}
{"Structure (SMILES)": "CC(=O)c1ccc2c(c1)sc1nc(=O)c(C#N)cn12", "test": "microbial growth, broth dilution", "MIC": "< 66 µg/mL"}
{"Structure (SMILES)": "CC1C=CC=CC(C)C2C=CC3CC(C)(O)C(Cl)C(C)C3C2C(=O)C(Cl)(Cl)C(=O)C(C)C(=O)O1 (stereo not shown)", "test": "microbial growth, broth dilution", "MIC": "0.1 µg/mL"}
{"Structure (SMILES)": "CC1(C)S[C@@H]2[C@H](NC(=O)[C@H](NC(=O)C3=C(O)C(c4ccccc4F)NC3=O)c3ccccc3)C(=O)N2[C@H]1C(=O)O (stereo partly shown)", "test": "microbial growth, broth dilution", "test system": "ATCC23857", "MIC": "1.56 µg/mL"}
{"Structure (SMILES)": "Cn1c(Cl)c(Cl)c(-n2c(C(=O)c3ccccc3O)cc(Cl)c2Cl)c1C(=O)c1ccccc1O", "test": "microbial growth, broth dilution", "test system": "168", "setting": "20 h", "MIC": "> 64 µg/mL"}
{"Structure (SMILES)": "N#Cc1ccc2cccc(O)c2n1", "test": "microbial growth, agar dilution", "test system": "ATCC6633", "MIC": "> 1500 µM"}
{"Structure (SMILES)": "CCCCCCCCCCCCCCCCCCSCC1OC(OC2C(N)CC(N)C(OC3OC(CN)C(O)CC3N)C2O)C(O)C(N)C1O (stereo not shown)", "test system": "168", "MIC": "75 µg/mL"}
{"Structure (SMILES)": "O=C(c1ccc[nH]1)c1ccccc1O", "test": "microbial growth, broth dilution", "test system": "168", "setting": "20 h", "MIC": "> 64 µg/mL"}
{"Structure (SMILES)": "C/C(=N\\NC1=NC(=O)CS1)c1ccc2c(c1)sc1nc(=O)c(C#N)cn12", "test": "microbial growth, broth dilution", "MIC": "< 64 µg/mL"}
{"Structure (SMILES)": "CCCCCCCCCCCCC[C@@H](O)Cc1cc(O)cc(O)c1", "test": "microbial growth, broth dilution", "test system": "168", "MIC": "16 µg/mL"}
{"Structure (SMILES)": "CN[C@H](CC(C)C)C(=O)N[C@H]1C(=O)N[C@@H](CC(N)=O)C(=O)N[C@H]2C(=O)N[C@H]3C(=O)N[C@H](C(=O)N[C@H](C(=O)O)c4cc(O)cc(O)c4-c4cc3ccc4O)[C@H](O)c3ccc(c(Cl)c3)Oc3cc2cc(c3O[C@@H]2O[C@H](CO)[C@@H](O)[C@H](O)[C@H]2O[C@H]2C[C@](C)(NCc3ccc(C(=O)OCCCCCCN(Cc4ccccn4)Cc4ccccn4)cc3)[C@H](O)[C@H](C)O2)Oc2ccc(cc2Cl)[C@H]1O", "test": "microbial growth", "MIC": "0.2 µM"}
{"Structure (SMILES)": "CCOC1C(C)C2C(C=CC3C(C)C=CC=CC(C)OC(=O)C(C)C(=O)C(Cl)(Cl)C(=O)C32)CC1(C)O (stereo not shown)", "test": "microbial growth, broth dilution", "MIC": "> 6.4 µg/mL"}
{"Structure (SMILES)": "COc1ccc(-c2cc(C(F)(F)F)n3nc(N)nc3n2)cc1OC", "test": "broth microdilution", "test system": "3610", "setting": "20 h, 37 °C", "MIC": "> 128 µg/mL"}
{"Structure (SMILES)": "Cn1c(C23CC4CC(CC(C4)C2)C3)nn(CCN2CCCC2)c1=S", "test": "two-fold dilution", "test system": "IFO 3007", "setting": "24 h, 36 °C", "MIC": "4 µg/mL"}
{"Structure (SMILES)": "C[C@@H]1C(=O)O[C@@H](C)/C=C/C=C\\[C@@H](C)[C@@H]2C=C[C@@H]3C[C@@]4(C)O[C@H]4[C@@H](C)[C@H]3[C@@H]2C(=O)C(Cl)(Cl)C1=O", "test": "microbial growth, broth dilution", "MIC": "0.025 µg/mL"}
{"note": "Some of these lines once more:"}
{"Structure (SMILES)": "COc1ccc(-c2cc(C(F)(F)F)n3nc(N)nc3n2)cc1OC", "test": "broth microdilution", "test system": "3610", "setting": "20 h, 37 °C", "MIC": "> 128 µg/mL"}
{"Structure (SMILES)": "Cn1c(C23CC4CC(CC(C4)C2)C3)nn(CCN2CCCC2)c1=S", "test": "two-fold dilution", "test system": "IFO 3007", "setting": "24 h, 36 °C", "MIC": "4 µg/mL"}
